# Results of several laboratories.
# Parts stem from different laboratories: compare values within a part only.
# UniProt Q9Y2U5, sequence (whole entry, looked up): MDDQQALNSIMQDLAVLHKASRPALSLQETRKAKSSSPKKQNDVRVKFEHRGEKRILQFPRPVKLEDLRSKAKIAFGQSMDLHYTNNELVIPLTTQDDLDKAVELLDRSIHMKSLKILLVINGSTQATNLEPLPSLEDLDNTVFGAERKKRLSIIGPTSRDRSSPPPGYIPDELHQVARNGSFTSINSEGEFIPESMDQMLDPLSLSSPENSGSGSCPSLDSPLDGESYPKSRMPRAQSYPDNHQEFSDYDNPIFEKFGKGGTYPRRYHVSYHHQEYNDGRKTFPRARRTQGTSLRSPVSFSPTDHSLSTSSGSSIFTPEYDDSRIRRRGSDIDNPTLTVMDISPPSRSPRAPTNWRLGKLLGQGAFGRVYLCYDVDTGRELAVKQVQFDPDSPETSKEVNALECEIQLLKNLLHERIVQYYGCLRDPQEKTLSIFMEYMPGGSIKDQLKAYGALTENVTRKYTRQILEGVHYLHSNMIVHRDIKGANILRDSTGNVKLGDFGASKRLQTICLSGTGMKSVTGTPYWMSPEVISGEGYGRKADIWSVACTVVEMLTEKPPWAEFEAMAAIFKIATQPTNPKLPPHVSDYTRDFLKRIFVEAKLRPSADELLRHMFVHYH
# UniProt P51812, sequence (whole entry, looked up): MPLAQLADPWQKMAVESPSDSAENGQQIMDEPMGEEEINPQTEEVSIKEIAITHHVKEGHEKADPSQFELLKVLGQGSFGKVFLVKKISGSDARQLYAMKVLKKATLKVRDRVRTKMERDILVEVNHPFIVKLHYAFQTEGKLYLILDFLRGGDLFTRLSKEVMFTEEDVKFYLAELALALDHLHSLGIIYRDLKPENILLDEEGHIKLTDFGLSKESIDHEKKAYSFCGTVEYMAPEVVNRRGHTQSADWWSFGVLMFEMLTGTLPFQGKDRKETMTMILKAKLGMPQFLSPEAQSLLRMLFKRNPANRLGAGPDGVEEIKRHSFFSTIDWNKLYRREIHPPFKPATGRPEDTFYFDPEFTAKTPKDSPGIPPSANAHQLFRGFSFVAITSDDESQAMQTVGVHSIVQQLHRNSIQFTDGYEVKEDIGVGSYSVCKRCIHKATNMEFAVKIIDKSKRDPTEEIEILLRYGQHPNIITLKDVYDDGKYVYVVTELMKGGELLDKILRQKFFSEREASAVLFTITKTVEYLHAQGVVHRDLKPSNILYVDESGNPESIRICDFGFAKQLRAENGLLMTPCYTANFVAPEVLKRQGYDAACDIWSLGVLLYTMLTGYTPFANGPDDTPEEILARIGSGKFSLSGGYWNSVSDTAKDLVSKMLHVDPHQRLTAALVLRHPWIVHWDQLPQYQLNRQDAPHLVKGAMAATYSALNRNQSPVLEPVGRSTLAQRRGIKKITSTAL
# UniProt P42336, sequence (whole entry, unmodified, looked up): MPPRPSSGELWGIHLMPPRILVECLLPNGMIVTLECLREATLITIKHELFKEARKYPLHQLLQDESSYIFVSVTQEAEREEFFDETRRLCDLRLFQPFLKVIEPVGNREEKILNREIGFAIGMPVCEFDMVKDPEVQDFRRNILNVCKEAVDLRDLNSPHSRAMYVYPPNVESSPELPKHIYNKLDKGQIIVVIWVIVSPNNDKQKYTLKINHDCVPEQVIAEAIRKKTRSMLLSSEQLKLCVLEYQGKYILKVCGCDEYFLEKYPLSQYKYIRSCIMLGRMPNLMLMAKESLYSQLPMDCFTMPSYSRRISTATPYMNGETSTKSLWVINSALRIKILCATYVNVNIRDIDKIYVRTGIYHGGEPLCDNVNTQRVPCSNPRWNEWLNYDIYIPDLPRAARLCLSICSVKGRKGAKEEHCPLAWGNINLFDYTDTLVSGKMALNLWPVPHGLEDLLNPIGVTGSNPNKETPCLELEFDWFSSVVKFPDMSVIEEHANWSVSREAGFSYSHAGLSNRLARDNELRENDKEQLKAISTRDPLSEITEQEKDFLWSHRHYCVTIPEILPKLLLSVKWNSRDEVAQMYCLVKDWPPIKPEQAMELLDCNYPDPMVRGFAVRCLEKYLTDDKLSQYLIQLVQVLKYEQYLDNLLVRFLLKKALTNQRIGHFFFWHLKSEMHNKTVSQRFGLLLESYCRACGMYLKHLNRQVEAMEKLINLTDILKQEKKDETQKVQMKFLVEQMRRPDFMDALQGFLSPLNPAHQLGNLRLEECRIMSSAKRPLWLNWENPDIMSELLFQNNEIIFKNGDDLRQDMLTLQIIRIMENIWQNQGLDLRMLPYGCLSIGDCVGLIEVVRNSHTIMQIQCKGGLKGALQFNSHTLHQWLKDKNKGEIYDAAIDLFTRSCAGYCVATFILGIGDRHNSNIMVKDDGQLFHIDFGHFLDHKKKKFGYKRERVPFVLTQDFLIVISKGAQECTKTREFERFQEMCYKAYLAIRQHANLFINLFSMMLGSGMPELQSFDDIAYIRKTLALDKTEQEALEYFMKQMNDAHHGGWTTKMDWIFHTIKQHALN
# UniProt O96017, sequence (whole entry, looked up): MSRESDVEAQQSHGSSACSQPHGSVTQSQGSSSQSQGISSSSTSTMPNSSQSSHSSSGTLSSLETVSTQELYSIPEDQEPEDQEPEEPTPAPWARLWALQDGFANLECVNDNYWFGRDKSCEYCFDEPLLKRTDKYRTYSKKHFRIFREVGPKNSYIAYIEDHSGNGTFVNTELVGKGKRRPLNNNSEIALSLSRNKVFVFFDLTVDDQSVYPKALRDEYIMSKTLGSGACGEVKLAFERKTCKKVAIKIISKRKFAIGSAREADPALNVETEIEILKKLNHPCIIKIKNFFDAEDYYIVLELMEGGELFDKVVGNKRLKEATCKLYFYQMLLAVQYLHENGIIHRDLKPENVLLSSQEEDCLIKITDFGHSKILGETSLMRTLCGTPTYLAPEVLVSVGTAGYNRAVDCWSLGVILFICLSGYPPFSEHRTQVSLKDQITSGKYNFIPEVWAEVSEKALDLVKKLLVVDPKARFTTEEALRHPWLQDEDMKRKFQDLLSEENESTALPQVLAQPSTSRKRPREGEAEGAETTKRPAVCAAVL
# UniProt Q16513, sequence (whole entry, looked up): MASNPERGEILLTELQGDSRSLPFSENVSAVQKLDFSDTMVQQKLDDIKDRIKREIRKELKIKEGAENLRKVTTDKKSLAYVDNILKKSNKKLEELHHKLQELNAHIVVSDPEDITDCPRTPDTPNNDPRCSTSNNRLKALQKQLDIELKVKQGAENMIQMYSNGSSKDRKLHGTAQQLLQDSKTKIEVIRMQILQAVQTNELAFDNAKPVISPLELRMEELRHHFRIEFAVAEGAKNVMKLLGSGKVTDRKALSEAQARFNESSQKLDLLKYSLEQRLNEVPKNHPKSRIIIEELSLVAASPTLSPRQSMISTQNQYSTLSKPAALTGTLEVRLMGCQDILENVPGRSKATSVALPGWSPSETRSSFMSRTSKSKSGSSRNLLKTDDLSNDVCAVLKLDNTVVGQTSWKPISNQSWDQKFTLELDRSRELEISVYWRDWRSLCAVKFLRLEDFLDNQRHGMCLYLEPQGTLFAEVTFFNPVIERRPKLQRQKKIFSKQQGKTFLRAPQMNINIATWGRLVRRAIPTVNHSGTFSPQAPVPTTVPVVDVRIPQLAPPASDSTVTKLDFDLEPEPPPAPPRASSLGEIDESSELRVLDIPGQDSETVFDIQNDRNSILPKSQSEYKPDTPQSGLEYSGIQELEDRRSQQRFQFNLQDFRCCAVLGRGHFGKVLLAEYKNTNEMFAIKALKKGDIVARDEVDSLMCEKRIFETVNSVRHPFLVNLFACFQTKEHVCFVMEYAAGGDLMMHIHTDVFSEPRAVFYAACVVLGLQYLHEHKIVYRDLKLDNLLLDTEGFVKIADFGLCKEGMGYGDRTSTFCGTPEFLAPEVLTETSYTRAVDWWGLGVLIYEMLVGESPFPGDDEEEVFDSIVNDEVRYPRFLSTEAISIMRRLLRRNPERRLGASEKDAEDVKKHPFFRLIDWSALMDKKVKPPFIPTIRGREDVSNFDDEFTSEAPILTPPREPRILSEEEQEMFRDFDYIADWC

# Sample 1
# Organism: Sarcocystis neurona
# Read-out: parasite growth
# Tested at: 10 µM
# Time: 96 h
# Notes: first screen
SMILES,inhibition [%]
COc1cc2nc(N(C)CCCNC(=O)C3CCCO3)nc(N)c2cc1OC (stereo not drawn),8.2
CCc1ccc(CCOc2ccc(CC3SC(=O)NC3=O)cc2)nc1 (stereo not drawn),-30.9
COC(=O)CCc1ccc(OCC(O)CNC(C)C)cc1 (stereo not drawn),4.2
OCCN1C[C@H](O)[C@@H](O)[C@H](O)[C@H]1CO,-12.9
CCn1cc(C(=O)O)c(=O)c2cc(F)c(N3CCN(C)CC3)cc21,-8.3
CC(COc1ccccc1)NC(C)C(O)c1ccc(O)cc1 (stereo not drawn),-2.4
CCOC(=O)[C@H](CCc1ccccc1)N[C@H]1CCc2ccccc2N(CC(=O)O)C1=O,-16.5
O=C(O)c1cc(/N=N/c2ccc(S(=O)(=O)Nc3ccccn3)cc2)ccc1O,-3.5
O=C1c2c(O)cc(O)cc2OC(c2ccc(O)c(O)c2)C1O (stereo not drawn),-6.6
O=[N+]([O-])c1cccc2cn[nH]c12,1.9
CCCCc1nc(Cl)c(CO)n1Cc1ccc(-c2ccccc2-c2nn[nH]n2)cc1,-10.4
CC(=O)NCCCCCCNC(C)=O,0.9
CC1(C)S[C@@H]2[C@H](NC(=O)[C@H](N)c3ccccc3)C(=O)N2[C@H]1C(=O)O,-2.1
CCOC(=O)[C@@]1(CCCCCCOc2ccc(Cl)cc2)CO1,-19

# Sample 2
# Target: Calcium/calmodulin-dependent protein kinase type II subunit alpha (CAMK2A, Homo sapiens, UniProt Q9UQM7)
# UniProt Q9UQM7, sequence (whole entry, looked up): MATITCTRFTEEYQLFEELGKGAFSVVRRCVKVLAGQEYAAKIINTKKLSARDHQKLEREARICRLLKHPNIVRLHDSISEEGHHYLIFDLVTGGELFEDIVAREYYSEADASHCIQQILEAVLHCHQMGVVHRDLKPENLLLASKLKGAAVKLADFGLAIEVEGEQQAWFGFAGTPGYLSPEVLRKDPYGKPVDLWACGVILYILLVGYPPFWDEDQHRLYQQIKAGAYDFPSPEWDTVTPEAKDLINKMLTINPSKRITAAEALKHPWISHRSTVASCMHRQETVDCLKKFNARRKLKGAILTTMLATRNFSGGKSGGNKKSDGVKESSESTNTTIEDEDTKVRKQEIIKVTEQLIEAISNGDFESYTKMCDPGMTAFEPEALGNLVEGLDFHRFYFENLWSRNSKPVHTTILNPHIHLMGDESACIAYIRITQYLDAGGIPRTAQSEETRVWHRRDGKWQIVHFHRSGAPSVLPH
# Read-out: enzyme activity
# Action: inhibitor
# Tested at: 10 µM
Structure (SMILES),inhibition [%]
Cn1c(=O)c2[nH]cnc2n(C)c1=O,-2
Oc1cccc(O)c1O,-67
CC(C)(O)[C@@H]1CC[C@](C)([C@H]2[C@@H](O)C[C@@]3(C)[C@@H]4C[C@H](O)[C@H]5C(C)(C)[C@@H](O)CC[C@@]56C[C@@]46CC[C@]23C)O1,24
C1COC(NC(C2CC2)C2CC2)=N1,-3
CC(=O)OC/C=C/c1ccccc1,-19
CC(=O)OC/C=C(/C)CCC=C(C)C,-10
O=C(O)C1=CO[C@@H](O[C@@H]2O[C@H](CO)[C@@H](O)[C@H](O)[C@H]2O)[C@H]2[C@@H]1C=C[C@]2(O)CO,-27
CCCCCCCC/C=C/CCCCCCCC(=O)O,19
O=C(O)[C@@H](S)[C@@H](S)C(=O)O,-6

# Sample 3
# SMILES: CCC(=O)N[C@@H]1CC[C@H](C(=O)N(C)c2ccc(-c3nc4ccccc4o3)cc2)C1
# Read-out: cell-free assay
# Method: competition with immobilised ligand
# Tested at: 1 µM
target,remaining binding
"Epidermal growth factor receptor (EGFR, Homo sapiens, UniProt P00533, L861Q)",95%
"Ribosomal protein S6 kinase alpha-3, N-terminal kinase domain (RPS6KA3, Homo sapiens, UniProt P51812)",91%
"Mitogen-activated protein kinase kinase kinase 2 (MAP3K2, Homo sapiens, UniProt Q9Y2U5)",100%
"RAC-gamma serine/threonine-protein kinase (AKT3, Homo sapiens, UniProt Q9Y243)",100%
"Mast/stem cell growth factor receptor Kit (KIT, Homo sapiens, UniProt P10721, V559D/V654A)",100%
"Tyrosine-protein kinase ABL1, non-phosphorylated (ABL1, Homo sapiens, UniProt P00519, T315I)",79%
"Epidermal growth factor receptor (EGFR, Homo sapiens, UniProt P00533, A750P/del747-749)",100%
"Serine/threonine-protein kinase Chk2 (CHEK2, Homo sapiens, UniProt O96017)",100%
"Cyclin-dependent kinase 18 (CDK18, Homo sapiens, UniProt Q07002)",95%
"Receptor-type tyrosine-protein kinase FLT3 (FLT3, Homo sapiens, UniProt P36888, D835V)",92%
"Serine/threonine-protein kinase PLK4 (PLK4, Homo sapiens, UniProt O00444)",100%
"Serine/threonine-protein kinase N2 (PKN2, Homo sapiens, UniProt Q16513)",100%
"Phosphatidylinositol 4,5-bisphosphate 3-kinase catalytic subunit alpha isoform (PIK3CA, Homo sapiens, UniProt P42336, Q546K)",100%
"SNF-related serine/threonine-protein kinase (SNRK, Homo sapiens, UniProt Q9NRH2)",100%

# Sample 4
# Target: Eukaryotic initiation factor 4A-III (Homo sapiens, UniProt P38919)
# UniProt P38919, sequence (whole entry, looked up): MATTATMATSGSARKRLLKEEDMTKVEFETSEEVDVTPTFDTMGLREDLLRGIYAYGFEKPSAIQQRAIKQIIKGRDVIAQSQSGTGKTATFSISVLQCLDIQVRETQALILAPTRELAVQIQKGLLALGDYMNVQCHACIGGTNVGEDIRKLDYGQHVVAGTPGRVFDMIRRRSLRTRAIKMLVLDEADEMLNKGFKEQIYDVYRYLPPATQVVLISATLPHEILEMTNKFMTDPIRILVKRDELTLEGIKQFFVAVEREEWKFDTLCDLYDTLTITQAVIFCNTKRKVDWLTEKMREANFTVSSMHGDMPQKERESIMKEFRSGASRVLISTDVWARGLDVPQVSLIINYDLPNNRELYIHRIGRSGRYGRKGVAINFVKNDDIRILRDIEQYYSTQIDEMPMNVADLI
# Read-out: RNA clamping
# Method: fluorescence polarization
# Tested at: concentration not given
# Added: FAM-labelled poly r(AG)8 RNA
SMILES,fluorescence polarization change
O=C1C[C@@H](c2ccccc2)[C@]2(c3ccc(Br)cc3)Oc3cc(F)cc(F)c3[C@]12O,-1 mP
COc1ccc([C@@]23Oc4cc(OC)cc(OC)c4[C@]2(O)[C@H](O)[C@H](C(=O)N(C)C)[C@H]3c2ccccc2)cc1,23 mP
COc1ccc([C@H]2[C@H](C(=O)N(C)C)[C@@H](O)[C@@]3(O)c4c(OC)cc(OC)cc4O[C@@]23c2ccc(OC)cc2)cc1,2.1 mP
COc1cc(OC)c2c(c1)O[C@@]1(c3ccc(Br)cc3)[C@H](c3ccccc3)c3c(nc(-c4ccccc4)[nH]c3=O)[C@@]21O,3.9 mP
O=C1O[C@H]2[C@@H]1[C@H](c1ccccc1)[C@@]1(c3ccccc3)Oc3ccccc3[C@@]21O,-8.1 mP
COC(=O)/C=C/Cn1c(-c2ccccc2)nc2c(c1=O)[C@@H](c1ccccc1)[C@]1(c3ccc(OC)cc3)Oc3cc(OC)cc(OC)c3[C@]21O,3.7 mP
COC(=O)[C@@H]1[C@@H](c2ccccc2)[C@]2(c3ccc(OC)cc3)Oc3cc(OC)cc(OC)c3[C@@]23NC(CCl)=N[C@@]13O,14.9 mP
COC(=O)[C@H]1C(=O)[C@@]2(NN(C)C)c3c(OC)cc(OC)cc3O[C@@]2(c2ccc(OC)cc2)[C@@H]1c1ccccc1,6 mP
